Measured values gathered from unrelated publications.
Parts stem from different laboratories: compare values within a part only. Changes are numbered by the printed parent chain.

Sample 1 — method: RNAcompete; form: RNA; matrix: in vitro; tested at: 20 nM; setting: 7-mer, probes averaged, single round; baseline: mean of 7-mers; direction: higher = stronger binding; measurement: 7-mer Z-score
Target: PABPC1L2, full length, GST fusion (mouse, UniProt A0ABA7IW68)
Construct (chain): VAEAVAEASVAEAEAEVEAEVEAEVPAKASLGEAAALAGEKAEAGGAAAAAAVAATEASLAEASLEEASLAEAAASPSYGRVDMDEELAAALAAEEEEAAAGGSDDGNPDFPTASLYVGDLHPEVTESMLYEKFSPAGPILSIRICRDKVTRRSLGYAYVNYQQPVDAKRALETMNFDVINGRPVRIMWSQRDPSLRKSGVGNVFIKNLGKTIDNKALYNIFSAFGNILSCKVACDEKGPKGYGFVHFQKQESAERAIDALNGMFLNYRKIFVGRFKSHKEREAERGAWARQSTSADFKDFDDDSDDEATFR
Sequence = AUCGAGU; result = -0.012
Sequence = GGAGCUG; result = 0.166
Sequence = UGGAUGA; result = 0.0714
Sequence = GCCUCAA; result = -0.2
Sequence = UAGUGGG; result = 0.274
Sequence = GGCUUAA; result = 0.000733
Sequence = GAUCAUA; result = -0.0156
Sequence = CGCACUA; result = -0.157
Sequence = GGAGUUU; result = -0.295
Sequence = UACGCGU; result = -0.362
Sequence = CCGCGGC; result = -0.277
Sequence = CCUGAAC; result = -0.228

Sample 2 — method: DHFR PCA, deep sequencing; matrix: yeast; together with: (+)-ABA 0.0091 µM; baseline: wild-type fitted maximum; direction: higher = stronger binding; measurement: relative binding score
Target: ABI1, truncated, D143A, DHFR fusion (Arabidopsis thaliana)
Setting: methotrexate growth selection, single substitutions
Starting sequence: PYL1, truncated, DHFR fusion (Arabidopsis thaliana); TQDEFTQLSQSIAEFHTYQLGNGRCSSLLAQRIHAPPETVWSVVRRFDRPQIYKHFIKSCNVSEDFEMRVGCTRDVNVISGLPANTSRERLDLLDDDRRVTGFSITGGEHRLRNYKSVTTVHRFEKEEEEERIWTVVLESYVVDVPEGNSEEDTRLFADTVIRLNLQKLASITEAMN
Variant = S104Y; result = -0.515%
Variant = V142S; result = 13.3%
Variant = Y53C; result = -5.24%
Variant = R74G; result = -2.2%
Variant = F157R; result = -1.73%
Variant = A158T; result = 6.68%
Variant = V145E; result = -3.95%
Variant = Q10R; result = 21%
Variant = T119K; result = -2.16%
Variant = D3P; result = 14.3%
Variant = P50L; result = -7%
Variant = F103L; result = 0.605%
Variant = D92G; result = 2.53%

Sample 3 — method: Sort-seq; measured: YFP reporter; matrix: E. coli; setting: PhoQ-PhoP variant library; together with: 10 µM Mg2+; baseline: high Mg2+ state; direction: higher = stronger signaling; measurement: fold induction
Substance: PhoQ, residues 284 288 289 292 302 303 ALASRC
target = PhoP, residues 12 14 15 18 19 SHWTV (Escherichia coli, UniProt P23836); result = 0.939
target = PhoP, residues 12 14 15 18 19 STHWV (Escherichia coli, UniProt P23836); result = 5.23
target = PhoP, residues 12 14 15 18 19 QYCSL (Escherichia coli, UniProt P23836); result = 7.18

Sample 4 — target: CCNF, cyclin fold, Cln2 fusion (human); method: yeast growth competition, sequencing; matrix: yeast; setting: weak parent motif; baseline: not given; direction: higher = stronger binding; measurement: normalised enrichment score
Starting sequence: E2F8 docking peptide (human); FVPQRKLEVSTED
Variant = S10A; result = 0.28
Variant = T11A; result = 0.101
Variant = R5A; result = -0.478
Variant = R5K V9L; result = 0.481
Variant = V9L; result = 3.41
Variant = V9A; result = -0.445
Variant = D13A; result = 0.275
Variant = L7A; result = 0.384

Excerpt of the above (sample 3):
target = PhoP, residues 12 14 15 18 19 SHWTV (Escherichia coli, UniProt P23836); result = 0.939
target = PhoP, residues 12 14 15 18 19 STHWV (Escherichia coli, UniProt P23836); result = 5.23
target = PhoP, residues 12 14 15 18 19 QYCSL (Escherichia coli, UniProt P23836); result = 7.18
